Experimental data of several laboratories.

Compound | target or system | test | system | setting | how to read | endpoint | result
COc1cc(CNC(=O)C[C@H](C)CCC=C(C)C)ccc1OCc1cn(-c2ccc(C#N)cc2)nn1 | SW-620 | SRB |  | 10 µM, 48 h |  | growth percent | 71%
CC1(CCCCCCCCCCCCOCCCOP(=O)(O)CO[C@H](CO)Cn2ccc(N)nc2=O)COC1 | human gammaherpesvirus 4 | qPCR | Akata |  | reference: CC50 over EC50 | selectivity index | > 13
CC1CCC2(C(=O)OCc3ccccc3)CCC3(C)C(=CCC4C5(C)CCC(OC6OC(CO)C(OC7OC(C)C(O)C(O)C7O)C(O)C6OC6OC(C)C(O)C(O)C6O)C(C)(C)C5CCC43C)C2C1C (stereo not shown) | PRRSV |  | MARC-145, GD-XH |  | reference: CC50 over EC50 | selectivity index | 16
CC1(CCCCCCCCCCOCCCOP(=O)(O)CO[C@H](CO)Cn2ccc(N)nc2=O)COC1 | human gammaherpesvirus 4 | qPCR | Akata |  | reference: CC50 over EC50 | selectivity index | > 5
COc1cc(CNC(=O)C[C@H](C)CCC=C(C)C)ccc1OCc1cn(-c2ccc(F)cc2)nn1 | SR leukaemia cells | SRB |  | 10 µM, 48 h |  | growth percent | 68.9%
C=C(C)[C@@H]1CC[C@]2(C(=O)n3ccnc3)CC[C@]3(C)[C@H](CC[C@@H]4[C@@]5(C)CCCNC(C)(C)[C@@H]5CC[C@]43C)[C@@H]12 | Human papillomavirus 11 | viral replication | C-33 A |  | reference: CC50 over EC50 | selectivity index | 3
CCOC1=CC(=O)c2cc3c(cc2C1=O)CCCC3(C)C | Leishmania infantum |  | promastigotes |  | reference: HepG2 CC50 over promastigote EC50 | selectivity index | 12.4
CCCCCOC(=O)C12CCC(C)C(C)C1C1=CCC3C4(C)CCC(OC5OC(CO)C(OC6OC(C)C(O)C(O)C6O)C(O)C5OC5OC(C)C(O)C(O)C5O)C(C)(C)C4CCC3(C)C1(C)CC2 (stereo not shown) | PRRSV |  | MARC-145, GD-XH |  | reference: CC50 over EC50 | selectivity index | 13
C=C(C)[C@@H]1CC[C@]2(C(N)=O)CC[C@]3(C)[C@H](CC[C@@H]4[C@@]5(C)CCCNC(C)(C)[C@@H]5CC[C@]43C)[C@@H]12 | Human papillomavirus 11 | viral replication | C-33 A |  | reference: CC50 over EC50 | selectivity index | < 4
CC(C)=CCCC1=CCC2=C(C1)C(=O)c1ccccc1C2=O | Leishmania infantum |  | intracellular amastigotes, ex vivo mouse splenic explants |  | reference: HepG2 CC50 over amastigote EC50 | selectivity index | 2.7

Excerpt of the above:
Compound | target or system | test | system | setting | how to read | endpoint | result
COc1cc(CNC(=O)C[C@H](C)CCC=C(C)C)ccc1OCc1cn(-c2ccc(C#N)cc2)nn1 | SW-620 | SRB |  | 10 µM, 48 h |  | growth percent | 71%
